# Experimental data from different studies.
# Compare with care: the assays were run in different laboratories. ± gives the spread as reported.
# BCL2L1: Bcl-2-like protein 1 (BCL2L1, Homo sapiens, UniProt Q07817)
# Chain of UniProt Q07817 (whole entry, looked up): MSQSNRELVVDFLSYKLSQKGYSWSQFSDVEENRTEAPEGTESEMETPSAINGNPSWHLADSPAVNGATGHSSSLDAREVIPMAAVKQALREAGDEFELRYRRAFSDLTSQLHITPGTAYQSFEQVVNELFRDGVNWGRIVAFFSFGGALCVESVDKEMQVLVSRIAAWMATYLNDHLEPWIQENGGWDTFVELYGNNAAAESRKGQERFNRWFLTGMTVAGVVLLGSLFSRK
# Chain of UniProt P98170 (whole entry, looked up): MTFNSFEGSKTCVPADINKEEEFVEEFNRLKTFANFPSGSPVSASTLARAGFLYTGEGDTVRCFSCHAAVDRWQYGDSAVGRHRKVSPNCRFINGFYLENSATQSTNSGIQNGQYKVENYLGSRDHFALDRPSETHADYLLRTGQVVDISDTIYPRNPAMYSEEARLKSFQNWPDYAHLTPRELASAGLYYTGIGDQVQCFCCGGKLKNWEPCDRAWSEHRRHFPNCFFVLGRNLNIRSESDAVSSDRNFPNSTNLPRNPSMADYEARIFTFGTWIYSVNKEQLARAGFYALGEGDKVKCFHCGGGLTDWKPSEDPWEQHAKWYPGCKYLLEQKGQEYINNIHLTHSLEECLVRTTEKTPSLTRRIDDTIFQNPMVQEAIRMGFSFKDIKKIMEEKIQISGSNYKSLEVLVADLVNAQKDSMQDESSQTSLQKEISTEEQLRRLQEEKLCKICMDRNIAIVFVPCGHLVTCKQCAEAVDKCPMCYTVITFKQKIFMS
# Chain of UniProt Q9UKE5 (whole entry, looked up): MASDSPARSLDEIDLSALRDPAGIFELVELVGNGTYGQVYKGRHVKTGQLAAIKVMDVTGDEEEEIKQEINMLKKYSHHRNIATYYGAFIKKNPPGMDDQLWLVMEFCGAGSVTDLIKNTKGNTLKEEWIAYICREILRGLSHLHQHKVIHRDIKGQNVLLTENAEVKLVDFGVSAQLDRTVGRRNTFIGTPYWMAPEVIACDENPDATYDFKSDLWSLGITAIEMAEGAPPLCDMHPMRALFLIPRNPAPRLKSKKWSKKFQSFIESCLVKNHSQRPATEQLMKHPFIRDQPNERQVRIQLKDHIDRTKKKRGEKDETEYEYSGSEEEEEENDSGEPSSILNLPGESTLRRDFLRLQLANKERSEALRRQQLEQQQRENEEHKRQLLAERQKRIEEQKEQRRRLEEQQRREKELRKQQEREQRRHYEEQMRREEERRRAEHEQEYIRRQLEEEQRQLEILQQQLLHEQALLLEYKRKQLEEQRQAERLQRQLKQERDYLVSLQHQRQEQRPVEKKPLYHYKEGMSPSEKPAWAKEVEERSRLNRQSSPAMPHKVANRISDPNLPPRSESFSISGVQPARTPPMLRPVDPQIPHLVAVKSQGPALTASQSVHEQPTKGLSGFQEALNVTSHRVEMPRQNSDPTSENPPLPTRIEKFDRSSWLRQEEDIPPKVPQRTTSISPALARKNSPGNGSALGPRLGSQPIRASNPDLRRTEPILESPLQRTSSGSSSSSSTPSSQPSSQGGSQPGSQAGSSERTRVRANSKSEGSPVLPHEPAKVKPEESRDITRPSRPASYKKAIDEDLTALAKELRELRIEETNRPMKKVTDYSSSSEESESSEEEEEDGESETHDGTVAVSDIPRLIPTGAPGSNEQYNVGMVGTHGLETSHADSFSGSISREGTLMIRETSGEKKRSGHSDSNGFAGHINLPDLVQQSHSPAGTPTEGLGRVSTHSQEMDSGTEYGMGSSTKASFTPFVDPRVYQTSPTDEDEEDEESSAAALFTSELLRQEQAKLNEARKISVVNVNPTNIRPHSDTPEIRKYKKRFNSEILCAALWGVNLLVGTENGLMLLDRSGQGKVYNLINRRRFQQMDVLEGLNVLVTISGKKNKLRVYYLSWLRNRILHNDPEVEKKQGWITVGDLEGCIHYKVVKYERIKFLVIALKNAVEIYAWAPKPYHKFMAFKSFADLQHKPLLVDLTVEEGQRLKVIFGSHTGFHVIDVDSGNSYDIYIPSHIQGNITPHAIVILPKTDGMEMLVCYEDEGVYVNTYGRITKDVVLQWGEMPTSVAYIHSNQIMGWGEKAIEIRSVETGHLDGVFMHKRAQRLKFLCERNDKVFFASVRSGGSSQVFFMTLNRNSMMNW
# Chain of UniProt Q9NQS3 (whole entry, looked up): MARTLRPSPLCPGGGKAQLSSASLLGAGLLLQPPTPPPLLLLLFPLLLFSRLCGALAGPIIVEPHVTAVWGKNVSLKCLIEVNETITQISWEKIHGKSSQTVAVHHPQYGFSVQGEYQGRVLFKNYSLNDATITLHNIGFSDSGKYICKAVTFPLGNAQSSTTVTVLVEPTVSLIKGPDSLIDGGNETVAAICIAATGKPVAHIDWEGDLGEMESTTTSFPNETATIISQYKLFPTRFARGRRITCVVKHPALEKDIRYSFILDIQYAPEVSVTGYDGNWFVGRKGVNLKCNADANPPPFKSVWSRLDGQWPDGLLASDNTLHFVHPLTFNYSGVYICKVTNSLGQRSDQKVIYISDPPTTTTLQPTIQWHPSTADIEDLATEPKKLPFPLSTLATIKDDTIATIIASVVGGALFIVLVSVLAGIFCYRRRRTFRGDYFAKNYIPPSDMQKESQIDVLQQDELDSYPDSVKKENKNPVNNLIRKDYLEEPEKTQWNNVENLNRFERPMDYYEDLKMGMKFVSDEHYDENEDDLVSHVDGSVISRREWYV
# Chain of UniProt Q15046 (whole entry, looked up): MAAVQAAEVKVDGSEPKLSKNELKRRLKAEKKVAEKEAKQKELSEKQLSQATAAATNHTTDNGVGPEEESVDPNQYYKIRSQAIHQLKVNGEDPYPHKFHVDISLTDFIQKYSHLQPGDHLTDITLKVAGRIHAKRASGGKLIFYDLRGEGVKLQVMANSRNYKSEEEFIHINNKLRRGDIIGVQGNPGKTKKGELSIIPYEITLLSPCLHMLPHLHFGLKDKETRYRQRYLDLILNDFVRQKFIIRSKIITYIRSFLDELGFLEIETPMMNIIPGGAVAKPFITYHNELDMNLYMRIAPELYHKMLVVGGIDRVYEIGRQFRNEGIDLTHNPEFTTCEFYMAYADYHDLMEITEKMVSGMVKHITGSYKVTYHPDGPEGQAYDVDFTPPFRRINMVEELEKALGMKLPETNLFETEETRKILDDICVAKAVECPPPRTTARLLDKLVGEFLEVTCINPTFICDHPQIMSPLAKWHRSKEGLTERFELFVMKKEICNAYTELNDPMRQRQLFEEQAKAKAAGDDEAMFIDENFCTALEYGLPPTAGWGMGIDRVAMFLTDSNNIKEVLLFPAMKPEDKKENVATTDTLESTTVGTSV
# Chain of UniProt P08238 (whole entry, looked up): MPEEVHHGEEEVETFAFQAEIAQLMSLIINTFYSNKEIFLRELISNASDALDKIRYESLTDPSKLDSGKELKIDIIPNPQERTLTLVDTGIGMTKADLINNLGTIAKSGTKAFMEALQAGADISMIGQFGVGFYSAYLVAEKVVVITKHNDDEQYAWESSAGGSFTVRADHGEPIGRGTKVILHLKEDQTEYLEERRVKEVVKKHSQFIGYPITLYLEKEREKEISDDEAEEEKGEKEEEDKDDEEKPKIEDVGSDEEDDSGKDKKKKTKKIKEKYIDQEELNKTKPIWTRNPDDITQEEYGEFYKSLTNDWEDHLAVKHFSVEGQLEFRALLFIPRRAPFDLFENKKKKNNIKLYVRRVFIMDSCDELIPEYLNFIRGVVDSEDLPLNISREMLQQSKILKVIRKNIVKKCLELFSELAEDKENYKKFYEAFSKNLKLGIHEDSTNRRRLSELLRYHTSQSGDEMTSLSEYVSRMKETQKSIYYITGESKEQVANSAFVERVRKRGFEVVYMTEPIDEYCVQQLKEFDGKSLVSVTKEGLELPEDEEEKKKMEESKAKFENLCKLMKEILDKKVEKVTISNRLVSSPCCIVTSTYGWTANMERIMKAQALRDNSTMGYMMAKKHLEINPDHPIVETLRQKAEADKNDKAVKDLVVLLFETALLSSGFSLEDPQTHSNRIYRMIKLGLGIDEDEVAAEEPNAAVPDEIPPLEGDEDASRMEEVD
SMILES,target,assay,setting,Kd
C=C1[C@@H](O)C[C@H]2C(C)(C)C[C@H](Br)C[C@]2(C)[C@H]1C[C@H](O)[C@H]1CC(=O)NC1=O,"ribosome, Saccharomyces cerevisiae, 80S, E site",smFRET,"pH 7.5, 23 °C, 5 mM MgCl2",700 ± 250 nM
C=C1NC(=O)CNC(=O)[C@H](Cc2ccccc2)NC(=O)[C@H](Cc2ccc(O)cc2)NC(=O)CNC(=O)[C@H](CCCCN)NC(=O)[C@H](CC(=O)O)NC(=O)[C@H](Cc2c[nH]c3ccccc23)NC(=O)CNC(=O)[C@H](Cc2c[nH]cn2)NC(=O)[C@H](Cc2c[nH]c3ccccc23)NC(=O)[C@H](Cc2c[nH]c3ccccc23)NC(=O)c2ccc(-c3nc(C(=O)OC)cs3)nc2-c2csc1n2,"TRAF2 and NCK-interacting protein kinase (TNIK, Homo sapiens, UniProt Q9UKE5)","binding, SPR",,23 nM
CC[C@H](C)[C@H](NC(=O)[C@H](CC(C)C)NC(=O)[C@H](C)NC(=O)[C@H](C)NC(=O)[C@@H]1CCCN1C(=O)[C@@H](NC(=O)[C@H](C)N)C(C)C)C(=O)N[C@@H](CC(C)C)C(=O)N[C@@H](CCCNC(=N)N)C(=O)N[C@@H](CCC(=O)O)C(=O)N[C@@H](CCCCN)C(=O)N[C@@H](CCCCN)C(=O)N[C@@H](CCCCN)C(=O)N[C@@H](CCCCNC(=O)CCCCCNC(=S)Nc1ccc2c(c1)C(=O)OC21c2ccc(O)cc2Oc2cc(O)ccc21)C(N)=O,"E3 ubiquitin-protein ligase XIAP, BIR1 domain (XIAP, Homo sapiens, UniProt P98170)",fluorescence polarization,"30 min, pH 7.5, added: 20 nM FITC-labeled peptide",no binding
CC[C@H](C)[C@H](NC(=O)[C@H](CCC(=O)O)NC(=O)[C@H](CCCNC(=N)N)NC(=O)[C@H](C)NC(=O)[C@H](Cc1c[nH]c2ccccc12)NC(=O)[C@H](CCC(N)=O)NC(=O)[C@H](CCC(=O)O)NC(=O)[C@H](CCC(=O)O)NC(=O)[C@H](CCC(=O)O)NC(=O)CNC(=O)[C@H](CCCNC(=N)N)NC(=O)CCCCCNC(=O)CCNC(=S)Nc1ccc2c(c1)C(=O)OC21c2ccc(O)cc2Oc2cc(O)ccc21)C(=O)NCC(=O)N[C@@H](C)C(=O)N[C@@H](CCC(N)=O)C(=O)N[C@@H](CC(C)C)C(=O)N[C@@H](CCCNC(=N)N)C(=O)N[C@@H](CCCNC(=N)N)C(=O)N[C@@H](CCSC)C(=O)N[C@@H](C)C(=O)N[C@@H](CC(=O)O)C(=O)N[C@@H](CC(=O)O)C(=O)N[C@@H](CC(C)C)C(=O)N[C@@H](CC(N)=O)C(=O)O,BCL2L1,"binding, fluorescence polarization",added: fluorescein-labelled BH3 peptide,103 nM
CC[C@H](C)[C@H](NC(=O)[C@H](CCCNC(=N)N)NC(=O)[C@H](CCCNC(=N)N)NC(=O)[C@H](CC(C)C)NC(=O)[C@H](CCC(=O)O)NC(=O)[C@H](CCC(N)=O)NC(=O)[C@H](C)NC(=O)[C@@H](NC(=O)[C@H](CNC(=O)CCl)NC(=O)[C@H](CCCNC(=N)N)NC(=O)[C@H](CCCNC(=N)N)NC(=O)[C@@H]1CCCN1C(=O)[C@H](CCCNC(=N)N)NC(=O)[C@H](CCCNC(=N)N)NC(=O)[C@@H]1CCCN1C(=O)[C@H](CCCNC(=N)N)NC(=O)[C@H](CCCNC(=N)N)NC(=O)[C@@H]1CCCN1C(=O)[C@H](CCCNC(=N)N)NC(=O)[C@H](CCCNC(=N)N)NC(=O)[C@@H]1CCCN1C(=O)[C@H](CCCNC(=N)N)NC(=O)[C@H](CCCNC(=N)N)NC(=O)[C@@H]1CCCN1C(C)=O)[C@@H](C)CC)C(=O)NCC(=O)N[C@@H](CC(=O)O)C(=O)N[C@@H](CCC(=O)O)C(=O)N[C@@H](Cc1ccccc1)C(=O)N[C@@H](CC(N)=O)C(=O)N[C@@H](C)C(=O)N[C@@H](Cc1ccc(O)cc1)C(=O)N[C@@H](Cc1ccc(O)cc1)C(=O)N[C@@H](C)C(=O)N[C@@H](CCCNC(=N)N)C(=O)N[C@@H](CCCNC(=N)N)C(N)=O,BCL2L1,"binding, ITC",,12.7 nM
CSCC[C@H](NC(=O)CNC(=O)[C@H](CCCNC(=N)N)NC(=O)[C@H](C)NC(=O)[C@@H](NC(=O)[C@H](CCC(N)=O)NC(=O)[C@H](Cc1ccc(OP(=O)(O)O)cc1)NC(=O)[C@H](C)NC(=O)[C@H](CS)NC(=O)[C@H](CO)NC(=O)[C@@H](NC(=O)[C@H](CC(C)C)NC(=O)[C@H](CC(=O)O)NC(=O)[C@H](CCCCN)NC(=O)[C@H](CO)NC(=O)[C@H](CO)NC(=O)c1ccc2c(c1)C(=O)OC21c2ccc(N(C)C)cc2Oc2cc(N(C)C)ccc21)C(C)C)C(C)C)C(=O)N[C@@H](CCC(=O)O)C(=O)N[C@@H](CC(=O)O)C(=O)O,"Tyrosine-protein kinase SYK, SH2 domains (SYK, Homo sapiens, UniProt P43405)",binding,,909 nM
CCCc1cc2cc(-n3nc(CCC)c4c3CC(C)(C)CC4=O)cc(N3CCC(O)CC3)c2c(=O)[nH]1,"Heat shock protein HSP 90-beta (HSP90AB1, Homo sapiens, UniProt P08238)",fluorescence polarization,"24 h, 4 °C, added: FITC-geldanamycin tracer",1660 nM
CC[C@H](C)[C@@H]1NC(=O)[C@@H]2CCCN2C(=O)[C@H](Cc2c[nH]c3ccccc23)NC(=O)[C@H](CO)NC(=O)[C@H](Cc2c[nH]c3ccccc23)NC(=O)[C@H](CC(N)=O)NC(=O)[C@H](CCCCN)NC(=O)[C@H](CCSC)NC(=O)[C@@H]2CSCCC(=O)N3CN(CN(C3)C(=O)CCSC[C@H](NC(=O)[C@H](C)N)C(=O)N3CCC[C@H]3C(=O)N[C@@H](Cc3ccccc3)C(=O)NCC(=O)N2)C(=O)CCSC[C@@H](C(=O)N[C@H](C(=O)N[C@@H](CC(N)=O)C(=O)N[C@@H](CCCCN)C(=O)N(C)CC(=O)N(C)CC(=O)N(C)CC(=O)N(C)CC(=O)N(C)CC(=O)N(C)CC(=O)N[C@@H](CCCCNC(=O)c2ccc(C(=O)O)c(-c3c4ccc(=O)cc-4oc4cc(O)ccc34)c2)C(N)=O)[C@@H](C)O)NC(=O)[C@H](Cc2c[nH]c3ccccc23)NC1=O,"Nectin-3 (NECTIN3, Homo sapiens, UniProt Q9NQS3)",fluorescence polarization,,> 2000 nM
C[C@H]1NC(=O)[C@H](CCC(=O)N[C@@H](CCCCN)C(N)=O)NC(=O)[C@@H](C)NC(=O)[C@H](Cc2ccc(F)cc2)NC(=O)[C@H](Cc2c[nH]c3ccccc23)NC(=O)[C@H](CCCNC(=N)N)NC(=O)[C@H](Cc2ccc(O)cc2)NC(=O)[C@H](CCCNC(=N)N)NC1=O,"Lysine--tRNA ligase (KARS1, Homo sapiens, UniProt Q15046)",binding,,2000 nM

# A few entries again:
SMILES,target,assay,setting,Kd
CC[C@H](C)[C@H](NC(=O)[C@H](CC(C)C)NC(=O)[C@H](C)NC(=O)[C@H](C)NC(=O)[C@@H]1CCCN1C(=O)[C@@H](NC(=O)[C@H](C)N)C(C)C)C(=O)N[C@@H](CC(C)C)C(=O)N[C@@H](CCCNC(=N)N)C(=O)N[C@@H](CCC(=O)O)C(=O)N[C@@H](CCCCN)C(=O)N[C@@H](CCCCN)C(=O)N[C@@H](CCCCN)C(=O)N[C@@H](CCCCNC(=O)CCCCCNC(=S)Nc1ccc2c(c1)C(=O)OC21c2ccc(O)cc2Oc2cc(O)ccc21)C(N)=O,"E3 ubiquitin-protein ligase XIAP, BIR1 domain (XIAP, Homo sapiens, UniProt P98170)",fluorescence polarization,"30 min, pH 7.5, added: 20 nM FITC-labeled peptide",no binding
CC[C@H](C)[C@H](NC(=O)[C@H](CCC(=O)O)NC(=O)[C@H](CCCNC(=N)N)NC(=O)[C@H](C)NC(=O)[C@H](Cc1c[nH]c2ccccc12)NC(=O)[C@H](CCC(N)=O)NC(=O)[C@H](CCC(=O)O)NC(=O)[C@H](CCC(=O)O)NC(=O)[C@H](CCC(=O)O)NC(=O)CNC(=O)[C@H](CCCNC(=N)N)NC(=O)CCCCCNC(=O)CCNC(=S)Nc1ccc2c(c1)C(=O)OC21c2ccc(O)cc2Oc2cc(O)ccc21)C(=O)NCC(=O)N[C@@H](C)C(=O)N[C@@H](CCC(N)=O)C(=O)N[C@@H](CC(C)C)C(=O)N[C@@H](CCCNC(=N)N)C(=O)N[C@@H](CCCNC(=N)N)C(=O)N[C@@H](CCSC)C(=O)N[C@@H](C)C(=O)N[C@@H](CC(=O)O)C(=O)N[C@@H](CC(=O)O)C(=O)N[C@@H](CC(C)C)C(=O)N[C@@H](CC(N)=O)C(=O)O,BCL2L1,"binding, fluorescence polarization",added: fluorescein-labelled BH3 peptide,103 nM
